# Results collected from several papers.
# Each numbered part is a random draw from the data of one study; scales do not carry over between parts. Substitutions count along the parent as printed.
# UniProt O43293, sequence (whole entry, looked up): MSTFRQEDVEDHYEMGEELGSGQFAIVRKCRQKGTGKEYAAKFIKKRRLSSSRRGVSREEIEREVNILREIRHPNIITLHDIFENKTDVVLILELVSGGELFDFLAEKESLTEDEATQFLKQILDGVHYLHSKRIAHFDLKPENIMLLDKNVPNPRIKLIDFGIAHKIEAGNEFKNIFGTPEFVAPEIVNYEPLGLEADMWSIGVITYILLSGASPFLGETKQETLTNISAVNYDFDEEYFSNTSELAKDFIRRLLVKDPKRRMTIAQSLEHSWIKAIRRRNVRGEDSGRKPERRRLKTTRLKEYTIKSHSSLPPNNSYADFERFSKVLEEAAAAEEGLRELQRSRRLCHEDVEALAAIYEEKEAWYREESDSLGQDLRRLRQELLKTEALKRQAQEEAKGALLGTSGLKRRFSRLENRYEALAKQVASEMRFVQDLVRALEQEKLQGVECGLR
# UniProt Q9UK32, sequence (whole entry, looked up): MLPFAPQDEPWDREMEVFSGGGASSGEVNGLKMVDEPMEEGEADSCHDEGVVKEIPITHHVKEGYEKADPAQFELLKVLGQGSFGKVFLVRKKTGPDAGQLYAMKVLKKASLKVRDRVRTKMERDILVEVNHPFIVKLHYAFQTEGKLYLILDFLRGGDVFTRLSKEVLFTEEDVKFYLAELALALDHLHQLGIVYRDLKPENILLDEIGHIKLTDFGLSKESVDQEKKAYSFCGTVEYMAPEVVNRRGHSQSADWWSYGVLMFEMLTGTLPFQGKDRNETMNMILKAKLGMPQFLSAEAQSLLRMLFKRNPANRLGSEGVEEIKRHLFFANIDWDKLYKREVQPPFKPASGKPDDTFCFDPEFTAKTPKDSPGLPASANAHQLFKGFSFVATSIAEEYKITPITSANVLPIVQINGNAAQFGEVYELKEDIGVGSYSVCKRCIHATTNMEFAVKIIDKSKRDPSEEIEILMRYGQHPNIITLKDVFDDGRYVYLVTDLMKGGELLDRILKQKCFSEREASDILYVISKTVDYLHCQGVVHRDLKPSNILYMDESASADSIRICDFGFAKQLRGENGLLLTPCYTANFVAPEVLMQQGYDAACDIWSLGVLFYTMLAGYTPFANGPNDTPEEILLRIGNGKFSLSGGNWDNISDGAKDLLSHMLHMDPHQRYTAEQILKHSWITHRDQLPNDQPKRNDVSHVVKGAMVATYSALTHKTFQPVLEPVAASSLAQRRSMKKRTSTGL

# Study 1
# Target: Sal-like protein 4, full length isoform A (SALL4, Homo sapiens, UniProt Q9UJQ4, residues 1-1053)
# UniProt Q9UJQ4, sequence (whole entry, looked up): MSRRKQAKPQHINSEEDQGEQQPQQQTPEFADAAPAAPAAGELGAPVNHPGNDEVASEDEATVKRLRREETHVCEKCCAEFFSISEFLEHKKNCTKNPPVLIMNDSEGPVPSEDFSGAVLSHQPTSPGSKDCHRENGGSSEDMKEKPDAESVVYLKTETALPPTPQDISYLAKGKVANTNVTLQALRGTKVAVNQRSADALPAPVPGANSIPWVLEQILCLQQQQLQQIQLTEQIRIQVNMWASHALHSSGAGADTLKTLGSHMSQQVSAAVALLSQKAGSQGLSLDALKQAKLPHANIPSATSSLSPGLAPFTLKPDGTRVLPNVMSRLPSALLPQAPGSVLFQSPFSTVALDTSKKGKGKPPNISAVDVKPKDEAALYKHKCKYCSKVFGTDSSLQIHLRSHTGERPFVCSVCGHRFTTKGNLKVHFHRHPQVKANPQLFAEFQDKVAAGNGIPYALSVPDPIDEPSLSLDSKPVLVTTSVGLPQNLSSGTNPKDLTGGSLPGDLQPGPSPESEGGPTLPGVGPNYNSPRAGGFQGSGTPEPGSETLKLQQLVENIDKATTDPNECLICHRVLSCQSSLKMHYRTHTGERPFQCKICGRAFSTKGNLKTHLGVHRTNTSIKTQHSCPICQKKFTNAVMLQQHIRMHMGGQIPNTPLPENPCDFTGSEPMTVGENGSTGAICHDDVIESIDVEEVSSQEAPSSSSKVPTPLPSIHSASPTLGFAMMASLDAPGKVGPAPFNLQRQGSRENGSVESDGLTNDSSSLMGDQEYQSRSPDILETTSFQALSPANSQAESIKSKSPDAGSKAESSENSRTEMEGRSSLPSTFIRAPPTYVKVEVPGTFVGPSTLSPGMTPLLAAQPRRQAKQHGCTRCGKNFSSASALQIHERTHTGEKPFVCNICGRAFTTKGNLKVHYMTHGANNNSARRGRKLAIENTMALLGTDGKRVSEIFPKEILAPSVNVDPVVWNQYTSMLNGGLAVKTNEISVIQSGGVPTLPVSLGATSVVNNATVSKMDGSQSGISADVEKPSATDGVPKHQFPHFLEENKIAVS
# Technique: universal PBM
# Form: double-stranded DNA, one strand shown
# Medium: in vitro
# Concentration: 600 nM
# Notes: 8-mer, flanks averaged, mean of replicates
# Direction: higher = stronger binding
Strand,E-score
CCCCCTCC,-0.409
GGAAAAAA,0.277
CTTGCCTC,-0.142
ACCAGAGG,-0.163
TCCGCGAA,0.00982
ATTCCGCC,-0.0897
GGATGCGA,-0.0748
ATTTCTAG,0.203

# Study 2
# Target: NFE2, bZIP domain (human)
# Technique: DHFR protein complementation
# Medium: yeast
# Notes: single substitutions, most at no-binding floor
# Baseline: wild-type JUN-FOS pair
# Direction: higher = stronger binding
# Starting sequence: JUN, bZIP domain (human); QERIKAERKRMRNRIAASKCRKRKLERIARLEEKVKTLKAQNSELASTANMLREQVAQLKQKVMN; partner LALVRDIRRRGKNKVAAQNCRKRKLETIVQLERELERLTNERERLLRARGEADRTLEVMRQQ
Change,binding fitness
L31M,-1.24 natural log
V35P,-1.52 natural log
Q58H,-1.52 natural log
E32L,-1.52 natural log
A29N,-1.54 natural log
L45I,-1.52 natural log
S43K,-1.49 natural log
R53P,-1.51 natural log

# Other studies, line by line
SMILES,target,assay,conditions,how to read,quantity,result
N#Cc1ccc(Nc2ccc3[nH]c(=O)[nH]c3c2)c(Cl)c1,"Ribosomal protein S6 kinase alpha-6, C-terminal kinase domain (RPS6KA6, Homo sapiens, UniProt Q9UK32)","cell-free assay, competition with immobilised ligand",1 µM,,remaining binding,100%
c1ccc(-c2[nH]ncc2-c2ccnc3ccccc23)nc1,"DAPK3 (Homo sapiens, UniProt O43293)","enzyme activity, inhibitor",0.5 µM,baseline: control,remaining activity,101%
